Measurements gathered from unrelated publications.
Parts stem from different laboratories: compare values within a part only. Positions count from the first letter of the parent shown.
Chain of UniProt Q5XXA6 (whole entry, unmodified, looked up): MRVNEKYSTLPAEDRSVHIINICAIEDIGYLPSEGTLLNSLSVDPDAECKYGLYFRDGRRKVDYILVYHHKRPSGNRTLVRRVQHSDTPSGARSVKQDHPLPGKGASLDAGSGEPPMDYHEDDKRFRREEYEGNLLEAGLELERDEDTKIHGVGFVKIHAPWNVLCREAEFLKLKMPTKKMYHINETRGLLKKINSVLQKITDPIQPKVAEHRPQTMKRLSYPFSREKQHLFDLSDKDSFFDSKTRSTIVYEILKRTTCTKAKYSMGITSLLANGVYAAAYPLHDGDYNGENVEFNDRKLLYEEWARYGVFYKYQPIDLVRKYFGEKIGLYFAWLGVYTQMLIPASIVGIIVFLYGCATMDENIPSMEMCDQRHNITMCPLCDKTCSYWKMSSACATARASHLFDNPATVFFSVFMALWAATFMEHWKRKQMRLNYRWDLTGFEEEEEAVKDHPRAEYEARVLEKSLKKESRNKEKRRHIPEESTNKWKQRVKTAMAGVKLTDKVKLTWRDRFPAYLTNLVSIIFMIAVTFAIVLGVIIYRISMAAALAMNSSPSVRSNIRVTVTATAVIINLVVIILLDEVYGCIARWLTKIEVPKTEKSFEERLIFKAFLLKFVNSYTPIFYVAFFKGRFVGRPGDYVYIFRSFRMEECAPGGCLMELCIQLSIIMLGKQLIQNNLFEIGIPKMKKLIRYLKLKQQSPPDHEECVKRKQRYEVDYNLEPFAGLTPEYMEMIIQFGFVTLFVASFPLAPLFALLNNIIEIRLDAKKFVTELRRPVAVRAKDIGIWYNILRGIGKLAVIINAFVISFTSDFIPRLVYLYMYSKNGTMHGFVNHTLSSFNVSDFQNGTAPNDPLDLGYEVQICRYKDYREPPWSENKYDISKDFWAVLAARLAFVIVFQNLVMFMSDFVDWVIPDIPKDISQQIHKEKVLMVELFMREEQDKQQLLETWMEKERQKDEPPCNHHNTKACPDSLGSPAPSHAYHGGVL

Series 1
Target: Hepatocyte nuclear factor 3-alpha (Foxa1, Mus musculus, UniProt P35582, residues 1-468, full length assumed)
Technique: EMSA with sequencing
Molecule type: double-stranded DNA, one strand shown
Sample: in vitro
Concentration: 10 and 20 nM
Setting: whole designed probe, mean of two concentrations, ends assumed
Reference: negative control set to 0
Reading: higher = stronger binding
Measurement: normalised bound fraction
Shared flanks, not repeated: GTGAGCGGTGCCCATTGATGGGGAAC … TTTCACTGGGATCGTGGGGAC
Construct (chain): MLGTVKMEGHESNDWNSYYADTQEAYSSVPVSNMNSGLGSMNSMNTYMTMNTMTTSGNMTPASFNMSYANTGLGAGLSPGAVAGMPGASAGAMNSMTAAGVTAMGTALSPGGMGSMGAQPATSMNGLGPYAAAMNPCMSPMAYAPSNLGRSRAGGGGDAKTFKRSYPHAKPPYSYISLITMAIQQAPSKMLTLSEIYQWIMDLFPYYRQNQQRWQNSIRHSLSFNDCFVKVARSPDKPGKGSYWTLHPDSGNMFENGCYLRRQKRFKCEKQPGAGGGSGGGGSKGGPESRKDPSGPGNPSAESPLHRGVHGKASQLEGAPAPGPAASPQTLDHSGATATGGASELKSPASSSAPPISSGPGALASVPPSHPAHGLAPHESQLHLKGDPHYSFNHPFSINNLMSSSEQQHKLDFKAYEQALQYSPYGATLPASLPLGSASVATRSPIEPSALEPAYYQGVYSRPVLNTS
CCGCCCGCGCGGGGCTTTGCTCCGCGGGAATTAAAGGAAGGAGAAATGTTAGTACACTTTTAATTGGAAACCGAGTTCTTCTTTCAGAGCGGCTTGTTTACTCAGGATTGGGCATTAGAACTCAGGGGAGGCTCTAATTGAAGTGACGGCTTTGGAGATTATGGGGAACATATGGCCCTACCGCCGGGCTCTT: 0.342 ratio
GTGTGTGCGCGCGCGTGTGTGTGTGTTTTCTTAAGCCGGGCTATTCAAACCCTGCTGCAATTCTCCGGTAAACAATGTTACATGGGGCATAATGCAAATAAACGGATTGCAAACGGCGCGGTTCGCGCACTTTGCAGCCGGCCCGGTGGAGCAGCCAGTGCCGGATTTCTCCCTTTTTTTGCAGATCTGCAGA: 0.424 ratio
GTGCTGAATGCATGTTATTTGCTTTCCTTCAAAAATACGTAACTAGGAAGAGCAGAGTACTATGTAATTTTGCTAATCACATGCTTTACTAAGTAAACAAAGAATACTTTAGGATAGATTTTATTTAAAGTCATCACCTTTCATAATCATTTTATTCTGCATCATAATTTCTTAATCAGGTAATGTAATTATA: 0.564 ratio
CAGCCTGCAGTGCGCTCAGTTAAACAATTCCAAATCAAGGAATTTTGTCTGATACAAGGAATTTGGGGTGTGTTTTCCTAACATGCACCCTGGGTAAATAGACTGCATGGGGGGGGGGCTTCCTGACCCAGCTGAAGCCAATATGCATTGCGGCCACAAGGTGGCGCGTCTGGGCCTGGCAAACCCCTGTGCT: 0.246 ratio
AGGTAAACCGAATCTGTTTTCTTCTACTCCCAAGATGGAAGAGGAAAAGGGAAAAAAAAGTGGAGAACATGCTTATGAAATCCTCAACTCCCCTTGTTTACTCTGTAAATAGCACAATATGTTTAGATTTTTCCACATCTAGAGGATTTCAAAATCTACCTGGGAGGGAGGGCTGGGGCATCAACTGGTATGC: 0.264 ratio
ATCTCGTAACAAATGGCTTCAGGGTGTTCAGCTGTTCTGCAGCTATGCTGAGGAATTCCTGCCTGTACAAAAGTCACTGTTCCAAGTCCTGTTAGATTACATTTTACTAATAAACCTCTGCCTCTGTGCTTAGCCTGAGGGGCTGCAGAGCTCCACACCCAGGAGTGGGCCCTCTGGGGATGCTGGGGTTTGA: -0.0469 ratio
CATTTTATTTTACAAAAGGAAATGAAATCTCATAGAGACTCAGGGGTACACTTTGTGTGGTTAATGTTCTTCTCACTTCCCTACACATTTTCCATATTTACATAGATGATTTTATTACAAAATATTATGCAAAATGAGAAATGTCCTTTAAGTGTTTTAATAAACTTTATCAGTGTTTTTTTATTATATCAAT: 0.249 ratio
ATCTTCCCCCTCTTCCTTGCCCCACCAGCTCACCTTCCCGGGTTATTTGCAGATAGGAAAATAAATAAAGCCGGCATTCGTTAACCCTCTTCTGGCGCAAACTGCTGTTTGCTCTGCATGAATCATGGTCCTTACGCGACGCCAGGCTCCGGGAGAGCAAAGCACCGTGTCAGGCGCATGATCCGGGGTGGCC: 0.345 ratio

Series 2
Target: ABI1, truncated, D143A, DHFR fusion (Arabidopsis thaliana)
Technique: DHFR PCA, deep sequencing
Sample: yeast
Setting: methotrexate growth selection, single substitutions
Added: (+)-ABA 0 µM
Reference: wild-type fitted maximum
Reading: higher = stronger binding
Measurement: relative binding score
Starting sequence: PYL1, truncated, DHFR fusion (Arabidopsis thaliana); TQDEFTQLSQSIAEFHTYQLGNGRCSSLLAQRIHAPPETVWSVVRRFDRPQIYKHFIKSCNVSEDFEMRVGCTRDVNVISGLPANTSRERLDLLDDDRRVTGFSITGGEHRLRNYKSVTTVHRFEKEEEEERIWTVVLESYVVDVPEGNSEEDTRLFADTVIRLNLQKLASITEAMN
E152Q: 14.1%
V70A: 6.58%
K54H: 0.117%
V100H: -2.35%
D153E: 15%
E147D: 38.1%
K58F: -4.3%
E64Q: 28.7%

Further values, each from its own experiment
C=CCc1ccc(O)c(-c2ccc(O)c(CC=C)c2)c1  IC50 (Anoctamin-1 (ANO1, Homo sapiens, UniProt Q5XXA6, del476-501/F627A); chloride current, whole-cell voltage clamp; membrane voltage -60 mV): 5.69 µM
N#CC1(c2ccccn2)CCN(Cc2cc(C(=O)N3CCCC3)c(=O)n3ccccc23)CC1  cells with bright nuclei (MRC9 fibroblasts; Hoechst high-content imaging; 10-fold recommended concentration, 24 h): 62%

For quick reference, copied from above (series 2):
K58F: -4.3%
E64Q: 28.7%
